# Assay results gathered from unrelated publications.
# Lines come from different studies, so protocols differ. Numbers after ± are the reported error.
# SLCO1B3 M233I: Solute carrier organic anion transporter family member 1B3 (SLCO1B3, Homo sapiens, UniProt Q9NPD5, M233I)
# Chain of UniProt Q9NPD5 (whole entry, unmodified, looked up): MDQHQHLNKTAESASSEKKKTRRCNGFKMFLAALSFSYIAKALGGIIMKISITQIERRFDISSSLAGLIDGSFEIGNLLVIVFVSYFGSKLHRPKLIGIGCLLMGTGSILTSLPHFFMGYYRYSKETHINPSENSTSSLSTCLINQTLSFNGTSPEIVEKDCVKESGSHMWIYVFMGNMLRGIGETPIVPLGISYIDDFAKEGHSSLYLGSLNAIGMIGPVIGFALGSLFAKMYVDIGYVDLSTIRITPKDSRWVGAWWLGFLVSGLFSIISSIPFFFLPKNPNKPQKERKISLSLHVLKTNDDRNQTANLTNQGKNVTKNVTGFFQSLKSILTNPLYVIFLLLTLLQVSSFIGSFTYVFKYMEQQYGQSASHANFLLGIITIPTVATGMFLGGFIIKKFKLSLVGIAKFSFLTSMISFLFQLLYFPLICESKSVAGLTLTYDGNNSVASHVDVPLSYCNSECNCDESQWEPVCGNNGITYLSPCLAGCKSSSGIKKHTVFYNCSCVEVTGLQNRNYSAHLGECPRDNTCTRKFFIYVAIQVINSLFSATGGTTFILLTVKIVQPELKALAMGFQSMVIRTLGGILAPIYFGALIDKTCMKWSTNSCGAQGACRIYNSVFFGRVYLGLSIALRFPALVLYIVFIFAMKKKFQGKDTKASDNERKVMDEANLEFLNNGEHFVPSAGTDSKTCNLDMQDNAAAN
# Chain of UniProt P10635 (whole entry, looked up): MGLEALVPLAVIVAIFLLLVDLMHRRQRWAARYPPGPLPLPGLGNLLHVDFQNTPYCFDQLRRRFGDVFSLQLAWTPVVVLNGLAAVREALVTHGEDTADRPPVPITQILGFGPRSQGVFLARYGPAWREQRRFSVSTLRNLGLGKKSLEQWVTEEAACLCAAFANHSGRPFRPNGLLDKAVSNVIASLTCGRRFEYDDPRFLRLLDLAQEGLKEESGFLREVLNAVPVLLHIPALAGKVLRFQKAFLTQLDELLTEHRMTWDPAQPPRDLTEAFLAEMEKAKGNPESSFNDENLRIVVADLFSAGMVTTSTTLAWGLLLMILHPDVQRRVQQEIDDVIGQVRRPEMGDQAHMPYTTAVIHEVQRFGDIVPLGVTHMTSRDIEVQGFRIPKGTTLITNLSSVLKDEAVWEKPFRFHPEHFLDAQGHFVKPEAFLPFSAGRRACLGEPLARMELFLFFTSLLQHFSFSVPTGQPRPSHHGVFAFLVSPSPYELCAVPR
# Chain of UniProt P08684 (whole entry, looked up): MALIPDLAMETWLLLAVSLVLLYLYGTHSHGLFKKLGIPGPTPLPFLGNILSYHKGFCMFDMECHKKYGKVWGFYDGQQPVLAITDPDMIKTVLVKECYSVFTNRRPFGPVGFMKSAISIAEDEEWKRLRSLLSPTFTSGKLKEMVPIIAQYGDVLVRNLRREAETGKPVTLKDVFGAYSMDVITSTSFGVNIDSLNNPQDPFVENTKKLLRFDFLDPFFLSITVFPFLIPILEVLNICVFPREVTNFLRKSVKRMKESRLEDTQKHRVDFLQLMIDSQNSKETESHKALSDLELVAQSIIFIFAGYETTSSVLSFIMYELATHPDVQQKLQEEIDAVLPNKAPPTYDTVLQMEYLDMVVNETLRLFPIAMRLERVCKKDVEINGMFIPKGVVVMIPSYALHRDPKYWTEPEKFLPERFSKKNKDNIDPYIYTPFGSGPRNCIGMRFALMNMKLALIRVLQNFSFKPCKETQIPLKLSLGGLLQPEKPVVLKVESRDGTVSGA
# Chain of UniProt P27338 (whole entry, looked up): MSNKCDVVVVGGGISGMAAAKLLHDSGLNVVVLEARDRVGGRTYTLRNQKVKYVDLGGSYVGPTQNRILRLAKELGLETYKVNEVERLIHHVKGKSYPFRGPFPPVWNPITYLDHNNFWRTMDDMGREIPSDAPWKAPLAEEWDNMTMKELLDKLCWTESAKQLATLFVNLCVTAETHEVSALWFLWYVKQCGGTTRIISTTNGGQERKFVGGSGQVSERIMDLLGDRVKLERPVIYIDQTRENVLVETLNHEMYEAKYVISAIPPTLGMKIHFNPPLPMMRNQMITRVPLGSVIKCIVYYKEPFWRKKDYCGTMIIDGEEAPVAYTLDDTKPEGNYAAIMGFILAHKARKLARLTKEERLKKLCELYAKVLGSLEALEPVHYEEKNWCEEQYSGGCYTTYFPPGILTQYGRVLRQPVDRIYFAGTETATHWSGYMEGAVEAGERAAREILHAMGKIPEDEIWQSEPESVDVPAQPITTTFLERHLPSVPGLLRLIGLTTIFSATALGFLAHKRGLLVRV
Compound,tested on,assay,test system,setting,scale,measurement,value
CNC(=O)c1cc(Oc2ccc(NC(=O)Nc3ccc(Cl)c(C(F)(F)F)c3)cc2)ccn1,SLCO1B3 M233I,"substrate, uptake",HEK293-A stably expressing SLCO1B3,2 min,,Km,43.9 µM
NCc1cc2c(cc1F)C(=O)N(C1CCC(=O)NC1=O)C2 (stereo not shown),"Amine oxidase [flavin-containing] B (MAOB, Homo sapiens, UniProt P27338)","substrate, LC-MS/MS",recombinant enzyme,"10 µM, 8 h, pH 7.4",,concentration,8.2 µM
CC[C@H]1[C@@H](O)[C@@H]2[C@H](CC[C@]3(C)[C@@H]([C@H](C)CCNC(=O)NS(=O)(=O)c4ccc(C(C)(C)C)cc4)CC[C@@H]23)[C@@]2(C)CC[C@@H](O)C[C@@H]12,"Cytochrome P450 3A4 (CYP3A4, Homo sapiens, UniProt P08684)",,"human, plasma","geometric mean, alone",,CL/F,12.2 L/h
CC(C)Nc1ccnc(Nc2cccc(-c3ccncc3)c2)n1,P-glycoprotein (human MDR1),,MDR1-MDCKII,"10 µM, 1 h, pH 7.4",relative to: B-A over A-B,efflux ratio,0.72
CC(C)c1nc(N(C)S(C)(=O)=O)nc(-c2ccc(F)cc2)c1/C=C/[C@@H](O)C[C@@H](O)CC(=O)O,SLCO1B3 M233I,"uptake, substrate",HEK293-A stably expressing SLCO1B3,2 min,,Vmax,412 ± 119 pmol/mg protein/min
c1cncc(-c2cccc(Nc3nccc(NC4CCCCC4)n3)c2)c1,P-glycoprotein (human MDR1),,MDR1-MDCKII,"10 µM, 1 h, pH 7.4",,Papp (A-B),10.4 ± 4.92 ×10⁻⁶ cm/s
N[C@@H](COP(=O)(O)O)C(=O)O,,"binding, MIDAS equilibrium dialysis LC-MS",A2AR-BRIL thermostabilized,concentration not given,relative to: no-protein control,log2 fold change,-0.205
CC(C)Nc1ccnc(Nc2cccc(-c3ccccn3)c2)n1,P-glycoprotein (human MDR1),,MDR1-MDCKII,"10 µM, 1 h, pH 7.4",,Papp (B-A),1.03 ± 0.707 ×10⁻⁶ cm/s
CC(C)n1c(/C=C/C(O)CC(O)CC(=O)O)c(-c2ccc(F)cc2)c2ccccc21 (stereo not shown),"Solute carrier organic anion transporter family member 1B3 (SLCO1B3, Homo sapiens, UniProt Q9NPD5, S112A)","substrate, uptake",HEK293-A stably expressing SLCO1B3,2 min,,Km,8.43 µM
N#C[C@H](C[C@@H]1CCCNC1=O)NC(=O)[C@H](CC1CC1)NC(=O)c1cc2cccc(Cl)c2[nH]1,"Cytochrome P450 2D6 (CYP2D6, Homo sapiens, UniProt P10635)",NADPH metabolic stability,,"2 µM, pH 7.4, 37 °C, 100 pmol/mL enzyme",,half-life,48.8 min
CCc1cc(/C(C)=N/OCc2ccc(C3CCCCC3)c(C(F)(F)F)c2)ccc1CN1CC(C(=O)O)C1,"Solute carrier organic anion transporter family member 1B3 (SLCO1B3, Homo sapiens, UniProt Q9NPD5)",inhibitor,HEK293 transfected with SLCO1B3,"16.8 µM, 3 min, together with: estradiol-17β-glucuronide 1 µM",,maximal inhibition,87%
CC(=O)N[C@H]1C(O)O[C@H](CO)[C@@H](O)[C@@H]1O[C@H](C)C(=O)O (stereo partly shown),,"binding, MIDAS equilibrium dialysis LC-MS",A2AR-BRIL thermostabilized,concentration not given,relative to: no-protein control,log2 fold change,-0.573
Cn1cc(-c2ccc(-c3cncc(Cl)c3N3CCC4(CCNC4=O)CC3)cc2)cn1,COLO 205,"microarray, item: LCN2",,"concentration not given, 2 h, gene set NGAL",relative to: untreated cells,fold change in expression,2.21

# Excerpt of the above:
Compound,tested on,assay,test system,setting,scale,measurement,value
CC(=O)N[C@H]1C(O)O[C@H](CO)[C@@H](O)[C@@H]1O[C@H](C)C(=O)O (stereo partly shown),,"binding, MIDAS equilibrium dialysis LC-MS",A2AR-BRIL thermostabilized,concentration not given,relative to: no-protein control,log2 fold change,-0.573
